{"data": "Results pooled from the literature", "note": "A part holds a random share of what one study measured."}
{"data": "Block 1", "target": "RNA binding protein fox-1 homolog 2, RRM domain, GST-SBP tag (RBFOX2, Homo sapiens, UniProt O43251-10, residues 100-194)", "method": "RNA Bind-n-Seq", "form": "RNA", "sample": "in vitro", "tested at": "365 nM", "setting": "natural RNA segment, single round, ends assumed", "relative to": "no-protein control", "direction": "higher = stronger binding"}
{"Strand": "GGGAGUUCUACAGUCCGACGAUCUGUCAUCUCUGAAAAGACUGGGGGAUAUGAAAUCUUCCCCCUACCCCACUUAAUGCGUUGGAUAUGAUUUUUCAAAGAAUGCUUCAUGCCCAAAAUACCAGCCUGUUUAGUGGAAUUCUCGGGUGCCAA", "RBNS enrichment (R)": 1.43}
{"Strand": "GGGAGUUCUACAGUCCGACGAUCACAUGCUAUGCUGAAGACAUUCAAAACGUGAUGUUUUGAAUGUGGAUAAAACUGUGUAAACCACAUAAUUUUUGUACAUCCCAAAGGAUGAGAAUGUGACCUUUAAGAAAUGGAAUUCUCGGGUGCCAA", "RBNS enrichment (R)": 0.36}
{"Strand": "GGGAGUUCUACAGUCCGACGAUCCUUUGAACAGCAGCCAAGGACAGCAGGGUCAUCAGGAUGUUUGGAGCCUGUCCUCUCAGGAGCUACAAAAGGAAUGCAGAAUUCUGUCUCUGUCCCUCCCACCUUGCCUUUGGAAUUCUCGGGUGCCAA", "RBNS enrichment (R)": 0.876}
{"data": "Block 2", "target": "Sal-like protein 4, full length isoform A (SALL4, Homo sapiens, UniProt Q9UJQ4, residues 1-1053)", "method": "universal PBM", "form": "double-stranded DNA, one strand shown", "sample": "in vitro", "tested at": "600 nM", "setting": "8-mer, flanks averaged, mean of replicates", "direction": "higher = stronger binding", "sequence of UniProt Q9UJQ4 (whole entry, looked up)": "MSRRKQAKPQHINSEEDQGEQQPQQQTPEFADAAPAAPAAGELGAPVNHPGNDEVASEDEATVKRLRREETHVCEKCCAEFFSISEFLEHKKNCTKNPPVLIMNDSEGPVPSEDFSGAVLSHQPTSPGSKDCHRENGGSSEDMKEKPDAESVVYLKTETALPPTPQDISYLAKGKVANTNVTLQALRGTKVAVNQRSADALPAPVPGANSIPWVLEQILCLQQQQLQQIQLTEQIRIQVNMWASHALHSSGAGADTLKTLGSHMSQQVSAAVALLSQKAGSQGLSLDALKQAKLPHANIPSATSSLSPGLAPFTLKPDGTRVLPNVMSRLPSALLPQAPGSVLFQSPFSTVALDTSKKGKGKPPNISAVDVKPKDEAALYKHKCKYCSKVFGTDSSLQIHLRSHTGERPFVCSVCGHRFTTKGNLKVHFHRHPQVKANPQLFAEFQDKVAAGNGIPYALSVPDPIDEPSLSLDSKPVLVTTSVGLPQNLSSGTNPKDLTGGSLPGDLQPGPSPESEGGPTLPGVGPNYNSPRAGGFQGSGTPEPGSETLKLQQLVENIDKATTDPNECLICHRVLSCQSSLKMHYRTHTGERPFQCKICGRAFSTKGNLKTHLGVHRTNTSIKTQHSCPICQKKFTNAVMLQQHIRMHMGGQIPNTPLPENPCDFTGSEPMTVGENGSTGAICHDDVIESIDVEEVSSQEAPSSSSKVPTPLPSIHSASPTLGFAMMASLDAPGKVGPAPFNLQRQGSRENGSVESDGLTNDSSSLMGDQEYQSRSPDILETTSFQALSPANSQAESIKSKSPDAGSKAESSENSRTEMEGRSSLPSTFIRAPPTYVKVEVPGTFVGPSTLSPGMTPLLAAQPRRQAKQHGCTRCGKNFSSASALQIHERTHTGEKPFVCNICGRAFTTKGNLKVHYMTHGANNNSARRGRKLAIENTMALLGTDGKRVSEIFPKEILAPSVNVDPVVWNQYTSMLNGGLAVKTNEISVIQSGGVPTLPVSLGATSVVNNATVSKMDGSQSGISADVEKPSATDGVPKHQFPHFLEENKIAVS"}
{"Strand": "CTTATCCA", "E-score": 0.103}
{"Strand": "ATCATCCG", "E-score": -0.232}
{"Strand": "TAACAAGA", "E-score": 0.249}
{"Strand": "GGGCTGTA", "E-score": -0.194}
{"data": "Block 3", "target": "Histone acetyltransferase KAT6A, winged helix 1, GST fusion (KAT6A, Homo sapiens, UniProt Q92794, residues 1-85)", "method": "protein binding microarray", "form": "double-stranded DNA, one strand shown", "sample": "in vitro", "tested at": "not given", "setting": "8-mer, flanks averaged, mean of 2 arrays, mostly near background", "relative to": "not given", "direction": "higher = stronger binding", "Construct (chain)": "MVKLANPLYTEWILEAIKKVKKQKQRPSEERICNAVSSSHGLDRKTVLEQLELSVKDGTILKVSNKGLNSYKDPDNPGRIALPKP"}
{"Strand": "TAATAGTA", "E-score": -0.0604}
{"Strand": "ACTATCGA", "E-score": 0.00593}
{"Strand": "TAGCCTGA", "E-score": -0.338}
{"Strand": "CTTTACGA", "E-score": 0.000655}
{"data": "Mixed results"}
{"Molecule": "PhoQ, residues 284 288 289 292 302 303 QWGLFV", "target": "PhoP, residues 12 14 15 18 19 SGWQI (Escherichia coli, UniProt P23836)", "test": "Sort-seq, measured: YFP reporter", "system": "E. coli", "setting": "PhoQ-PhoP variant library, with: 10 µM Mg2+", "scale": "relative to: high Mg2+ state, higher = stronger signaling", "endpoint": "fold induction", "value": 0.489}
